Published values gathered from unrelated publications.
Numbered parts are unrelated; each lists some results of a single study. Several values in a cell are separate wells, animals, samples, runs or records.
Chain of UniProt P07949 (whole entry, looked up): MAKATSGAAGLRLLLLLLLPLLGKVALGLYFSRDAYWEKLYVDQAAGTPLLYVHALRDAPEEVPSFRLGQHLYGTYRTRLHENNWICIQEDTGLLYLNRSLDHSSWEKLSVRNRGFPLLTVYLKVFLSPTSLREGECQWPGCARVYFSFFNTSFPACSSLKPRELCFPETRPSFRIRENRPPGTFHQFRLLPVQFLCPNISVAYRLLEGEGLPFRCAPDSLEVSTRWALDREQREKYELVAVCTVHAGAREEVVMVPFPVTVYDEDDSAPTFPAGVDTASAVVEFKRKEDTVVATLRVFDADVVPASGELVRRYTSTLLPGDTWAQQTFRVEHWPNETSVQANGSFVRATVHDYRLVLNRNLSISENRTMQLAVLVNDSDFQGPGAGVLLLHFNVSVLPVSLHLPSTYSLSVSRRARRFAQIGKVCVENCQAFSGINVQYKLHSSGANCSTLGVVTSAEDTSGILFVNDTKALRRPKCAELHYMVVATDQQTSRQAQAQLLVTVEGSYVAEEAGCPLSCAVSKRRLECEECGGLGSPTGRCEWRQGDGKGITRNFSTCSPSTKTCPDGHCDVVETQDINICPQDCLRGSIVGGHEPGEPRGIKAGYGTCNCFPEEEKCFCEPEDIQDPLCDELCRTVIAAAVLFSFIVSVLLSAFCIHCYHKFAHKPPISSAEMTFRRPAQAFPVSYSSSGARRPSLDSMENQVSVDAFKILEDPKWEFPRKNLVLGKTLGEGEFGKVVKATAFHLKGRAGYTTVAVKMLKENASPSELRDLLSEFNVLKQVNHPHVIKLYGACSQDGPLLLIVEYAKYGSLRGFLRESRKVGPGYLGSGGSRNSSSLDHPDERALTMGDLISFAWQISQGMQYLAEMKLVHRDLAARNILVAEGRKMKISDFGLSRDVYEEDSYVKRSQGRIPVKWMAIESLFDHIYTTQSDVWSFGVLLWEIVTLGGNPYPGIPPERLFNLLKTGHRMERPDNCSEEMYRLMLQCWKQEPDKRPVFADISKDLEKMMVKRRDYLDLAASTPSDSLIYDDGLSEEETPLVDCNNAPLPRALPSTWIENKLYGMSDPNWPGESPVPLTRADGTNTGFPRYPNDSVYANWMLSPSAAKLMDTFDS
Chain of UniProt P11309 (whole entry, looked up): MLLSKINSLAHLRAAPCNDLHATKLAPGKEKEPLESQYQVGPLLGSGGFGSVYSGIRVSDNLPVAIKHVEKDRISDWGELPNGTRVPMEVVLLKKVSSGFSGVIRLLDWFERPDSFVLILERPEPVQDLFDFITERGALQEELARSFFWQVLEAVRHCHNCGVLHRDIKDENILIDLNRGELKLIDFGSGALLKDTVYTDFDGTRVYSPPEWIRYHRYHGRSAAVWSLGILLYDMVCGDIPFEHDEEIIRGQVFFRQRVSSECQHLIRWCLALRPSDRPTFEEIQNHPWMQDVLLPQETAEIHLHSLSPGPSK
Chain of UniProt P36894 (whole entry, looked up): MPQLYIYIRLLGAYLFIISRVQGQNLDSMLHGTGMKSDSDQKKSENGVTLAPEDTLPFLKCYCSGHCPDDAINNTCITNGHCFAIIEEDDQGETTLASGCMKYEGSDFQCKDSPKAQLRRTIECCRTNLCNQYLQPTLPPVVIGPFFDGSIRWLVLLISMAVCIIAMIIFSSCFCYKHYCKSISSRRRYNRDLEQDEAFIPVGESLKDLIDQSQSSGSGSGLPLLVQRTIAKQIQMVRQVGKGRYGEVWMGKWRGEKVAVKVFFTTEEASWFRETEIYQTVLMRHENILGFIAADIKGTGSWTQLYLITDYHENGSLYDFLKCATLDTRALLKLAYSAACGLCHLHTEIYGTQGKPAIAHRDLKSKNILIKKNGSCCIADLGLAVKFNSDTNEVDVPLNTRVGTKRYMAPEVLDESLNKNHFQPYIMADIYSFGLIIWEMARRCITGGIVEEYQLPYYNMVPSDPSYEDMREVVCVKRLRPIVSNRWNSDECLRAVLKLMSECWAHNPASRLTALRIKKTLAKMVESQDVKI
Chain of UniProt Q12852 (whole entry, looked up): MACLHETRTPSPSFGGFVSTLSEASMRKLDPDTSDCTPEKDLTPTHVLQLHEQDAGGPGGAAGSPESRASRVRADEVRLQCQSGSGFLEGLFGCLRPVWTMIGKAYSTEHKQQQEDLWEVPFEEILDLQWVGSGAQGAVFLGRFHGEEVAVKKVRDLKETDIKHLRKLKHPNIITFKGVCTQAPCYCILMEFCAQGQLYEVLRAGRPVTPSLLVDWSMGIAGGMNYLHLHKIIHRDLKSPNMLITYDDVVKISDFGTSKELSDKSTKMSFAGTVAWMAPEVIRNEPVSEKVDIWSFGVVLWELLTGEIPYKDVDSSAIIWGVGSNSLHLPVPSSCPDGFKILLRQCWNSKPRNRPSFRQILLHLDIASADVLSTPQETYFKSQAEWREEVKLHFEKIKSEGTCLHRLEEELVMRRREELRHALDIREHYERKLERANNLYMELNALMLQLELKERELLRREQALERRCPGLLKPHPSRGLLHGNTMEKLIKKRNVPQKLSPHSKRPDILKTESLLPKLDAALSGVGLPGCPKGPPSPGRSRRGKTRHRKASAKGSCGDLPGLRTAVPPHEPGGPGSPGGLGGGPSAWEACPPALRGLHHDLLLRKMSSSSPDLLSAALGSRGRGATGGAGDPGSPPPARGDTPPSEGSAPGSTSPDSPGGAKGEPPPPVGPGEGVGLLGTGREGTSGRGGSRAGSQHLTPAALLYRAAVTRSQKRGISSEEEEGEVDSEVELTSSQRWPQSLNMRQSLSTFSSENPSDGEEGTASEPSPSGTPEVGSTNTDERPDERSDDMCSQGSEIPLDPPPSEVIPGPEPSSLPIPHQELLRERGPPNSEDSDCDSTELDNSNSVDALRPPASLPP
Chain of UniProt Q13882 (whole entry, looked up): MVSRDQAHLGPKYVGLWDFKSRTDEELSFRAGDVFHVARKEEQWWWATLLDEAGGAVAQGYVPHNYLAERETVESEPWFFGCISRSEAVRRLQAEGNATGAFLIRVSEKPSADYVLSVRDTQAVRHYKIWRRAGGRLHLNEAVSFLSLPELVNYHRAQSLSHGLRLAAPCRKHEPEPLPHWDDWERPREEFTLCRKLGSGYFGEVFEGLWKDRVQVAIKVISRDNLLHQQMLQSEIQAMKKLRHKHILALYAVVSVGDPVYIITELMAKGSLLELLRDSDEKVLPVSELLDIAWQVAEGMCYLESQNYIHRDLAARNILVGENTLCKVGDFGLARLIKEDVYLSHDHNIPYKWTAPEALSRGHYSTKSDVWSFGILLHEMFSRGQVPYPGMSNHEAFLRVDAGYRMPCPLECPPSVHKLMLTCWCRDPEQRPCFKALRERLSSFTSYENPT
Chain of UniProt O76039 (whole entry, looked up): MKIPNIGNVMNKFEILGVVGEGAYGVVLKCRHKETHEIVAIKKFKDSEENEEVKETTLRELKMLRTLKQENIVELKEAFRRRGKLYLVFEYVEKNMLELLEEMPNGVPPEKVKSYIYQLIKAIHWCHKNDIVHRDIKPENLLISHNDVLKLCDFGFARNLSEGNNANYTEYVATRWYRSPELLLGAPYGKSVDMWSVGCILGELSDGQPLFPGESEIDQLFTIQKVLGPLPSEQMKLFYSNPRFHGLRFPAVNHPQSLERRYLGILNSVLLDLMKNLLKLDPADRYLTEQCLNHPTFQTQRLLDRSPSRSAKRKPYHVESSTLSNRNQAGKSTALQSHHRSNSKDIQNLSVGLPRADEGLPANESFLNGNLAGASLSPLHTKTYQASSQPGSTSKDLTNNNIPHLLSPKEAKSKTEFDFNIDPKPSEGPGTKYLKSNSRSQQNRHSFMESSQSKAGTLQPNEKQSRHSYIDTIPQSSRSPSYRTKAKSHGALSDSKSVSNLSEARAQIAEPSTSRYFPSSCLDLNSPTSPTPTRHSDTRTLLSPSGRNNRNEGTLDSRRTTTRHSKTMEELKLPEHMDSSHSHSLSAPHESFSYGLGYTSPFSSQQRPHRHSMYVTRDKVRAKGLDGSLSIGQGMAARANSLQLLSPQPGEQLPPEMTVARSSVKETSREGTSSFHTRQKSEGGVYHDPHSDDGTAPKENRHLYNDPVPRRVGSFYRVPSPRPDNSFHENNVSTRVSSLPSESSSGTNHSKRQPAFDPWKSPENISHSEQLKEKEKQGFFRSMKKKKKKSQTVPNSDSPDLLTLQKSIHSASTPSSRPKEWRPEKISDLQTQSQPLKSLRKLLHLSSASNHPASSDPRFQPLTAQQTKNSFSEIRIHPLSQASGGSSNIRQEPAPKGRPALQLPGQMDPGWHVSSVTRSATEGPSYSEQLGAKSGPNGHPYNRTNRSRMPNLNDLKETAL

Sample 1
SMILES: Cc1sc(C(=O)NC2COC2)cc1-n1cc(NC(=O)Nc2c(F)cccc2Cl)cn1
Concentration: 10 µM
target	read-out	technique	baseline	remaining activity [%]
Serine/threonine-protein kinase BRSK2 (BRSK2, Homo sapiens, UniProt Q8IWQ3)	enzyme activity		untreated control	99.8
Dual specificity protein kinase CLK3 (CLK3, Homo sapiens, UniProt P49761)	enzyme activity		untreated control	96.3
Serine/threonine-protein kinase Sgk3 (SGK3, Homo sapiens, UniProt Q96BR1)	enzyme activity		untreated control	89.1
Dual specificity tyrosine-phosphorylation-regulated kinase 2 (DYRK2, Homo sapiens, UniProt Q92630)	enzyme activity		untreated control	95.6
Glycogen synthase kinase-3 beta (GSK3B, Homo sapiens, UniProt P49841)	enzyme activity		untreated control	94.6
Ribosomal protein S6 kinase alpha-2 (RPS6KA2, Homo sapiens, UniProt Q15349)	kinase activity	kinase panel profiling		100
Protein-tyrosine kinase 6 (PTK6, Homo sapiens, UniProt Q13882)	enzyme activity		untreated control	77.1
cAMP-dependent protein kinase catalytic subunit alpha (PRKACA, Homo sapiens, UniProt P17612)	enzyme activity		untreated control	92.5
Dual specificity tyrosine-phosphorylation-regulated kinase 1B (DYRK1B, Homo sapiens, UniProt Q9Y463)	enzyme activity		untreated control	104
Calcium/calmodulin-dependent protein kinase type II subunit beta (CAMK2B, Homo sapiens, UniProt Q13554)	enzyme activity		untreated control	99.8
Serine/threonine-protein kinase 32B (STK32B, Homo sapiens, UniProt Q9NY57)	enzyme activity		untreated control	81.7
Mitogen-activated protein kinase kinase kinase 1 (MAP3K1, Homo sapiens, UniProt Q13233)	enzyme activity		untreated control	91.7
Ephrin type-A receptor 1 (EPHA1, Homo sapiens, UniProt P21709)	enzyme activity		untreated control	86.4
Interleukin-1 receptor-associated kinase 1 (IRAK1, Homo sapiens, UniProt P51617)	enzyme activity		untreated control	78.5

Sample 2
SMILES: O=C(NCc1ncc(C(F)(F)F)cc1Cl)c1ccc2c(c1)C1(CCS(=O)(=O)CC1)[C@@H](C1CC1)N2S(=O)(=O)c1ccc(F)cc1
Read-out: cell-free assay
Technique: competition with immobilised ligand
Concentration: 1 µM
target	remaining binding
MAP kinase-interacting serine/threonine-protein kinase 1 (MKNK1, Homo sapiens, UniProt Q9BUB5)	78%
Serine/threonine-protein kinase WNK1 (WNK1, Homo sapiens, UniProt Q9H4A3)	79%
Serine/threonine-protein kinase Nek5 (NEK5, Homo sapiens, UniProt Q6P3R8)	86%
Serine/threonine-protein kinase TBK1 (TBK1, Homo sapiens, UniProt Q9UHD2)	84%
Casein kinase I isoform epsilon (CSNK1E, Homo sapiens, UniProt P49674)	100%
Hepatocyte growth factor receptor (MET, Homo sapiens, UniProt P08581, M1250T)	100%
Cyclin-dependent kinase-like 5 (CDKL5, Homo sapiens, UniProt O76039)	67%
SRSF protein kinase 2 (SRPK2, Homo sapiens, UniProt P78362)	100%
Tyrosine-protein kinase Tec (TEC, Homo sapiens, UniProt P42680)	100%
Atypical kinase COQ8B, mitochondrial (COQ8B, Homo sapiens, UniProt Q96D53)	85%
Phosphatidylinositol 4,5-bisphosphate 3-kinase catalytic subunit gamma isoform (PIK3CG, Homo sapiens, UniProt P48736)	95%
Hepatocyte growth factor receptor (MET, Homo sapiens, UniProt P08581, Y1235D)	100%
Serine/threonine-protein kinase Nek9 (NEK9, Homo sapiens, UniProt Q8TD19)	72%
Serine/threonine-protein kinase VRK2 (VRK2, Homo sapiens, UniProt Q86Y07)	98%
Serine/threonine-protein kinase WNK4 (WNK4, Homo sapiens, UniProt Q96J92)	100%
Peripheral plasma membrane protein CASK (CASK, Homo sapiens, UniProt O14936)	64%
Phosphatidylinositol 4,5-bisphosphate 3-kinase catalytic subunit alpha isoform (PIK3CA, Homo sapiens, UniProt P42336, E545K)	74%
Serine/threonine-protein kinase TAO2 (TAOK2, Homo sapiens, UniProt Q9UL54)	64%
Serine/threonine-protein kinase SIK2 (SIK2, Homo sapiens, UniProt Q9H0K1)	100%
Protein kinase C iota type (PRKCI, Homo sapiens, UniProt P41743)	100%

Sample 3
Cell line: HaCaT
Concentration: 100 µM
Time: 36 h
SMILES	viability
CCCCNc1cc(C(=O)O)cc(S(N)(=O)=O)c1Oc1ccccc1	100%
Clc1ccc(C(Cn2ccnc2)OCc2csc3c(Cl)cccc23)c(Cl)c1 (stereo not drawn)	6.53%
CO[C@H]1C[C@@H]2CC[C@@H](C)[C@@](O)(O2)C(=O)C(=O)N2CCCC[C@H]2C(=O)O[C@H]([C@H](C)C[C@@H]2CC[C@@H](O)[C@H](OC)C2)CC(=O)[C@H](C)/C=C(\C)[C@@H](O)[C@@H](OC)C(=O)[C@H](C)C[C@H](C)/C=C/C=C/C=C/1C	5.92%
Cc1cc(C#N)cc(C)c1Oc1nc(Nc2ccc(C#N)cc2)nc(N)c1Br	78.9%
CCOC(=O)C1=C[C@@H](OC(CC)CC)[C@H](NC(C)=O)[C@@H](N)C1	97.8%
COc1ccc2cc3[n+](cc2c1OC)CCc1cc2c(cc1-3)OCO2	30%
CN(C)CC[C@@H](c1ccc(Cl)cc1)c1ccccn1	70.3%
CN1[C@@H]2CC[C@H]1C[C@@H](OC(=O)c1c[nH]c3ccccc13)C2	54.3%
CC(C(=O)O)c1cccc(Oc2ccccc2)c1 (stereo not drawn)	71.1%
CC(C(=O)O)c1ccc2c(c1)CC(=O)c1ccccc1S2 (stereo not drawn)	88.7%
CCN(CC)CCOC(=O)C(c1ccccc1)c1ccccc1	69.7%
COc1ccc2[nH]c([S+]([O-])Cc3ncc(C)c(OC)c3C)nc2c1 (stereo not drawn)	82.1%

Sample 4
Compound: O=C1NC(=O)C(c2cn(-c3ccccc3)nc2-c2ccc(F)cc2)N1 (stereo not drawn)
Action: inhibitor
Concentration: 5 µM
target	assay	test system	setting	scale	log2 fold change
Cyclin-dependent kinase 11B (CDK11B, Homo sapiens, UniProt P21127)		human cells		baseline: vehicle	-0.156
Bone morphogenetic protein receptor type-1A (BMPR1A, Homo sapiens, UniProt P36894)	cell-based kinome profiling	human cells		baseline: vehicle control	-0.274
Proto-oncogene tyrosine-protein kinase receptor Ret (RET, Homo sapiens, UniProt P07949)		human cells	cell-based kinome screen	baseline: vehicle	0.21 and -0.151
RAF proto-oncogene serine/threonine-protein kinase (RAF1, Homo sapiens, UniProt P04049)	kinase activity		cell-based kinome screen	baseline: vehicle	-0.276
Vascular endothelial growth factor receptor 3 (FLT4, Homo sapiens, UniProt P35916)	cell-based translocation	human cells		baseline: vehicle	-0.673
Mitogen-activated protein kinase kinase kinase 12 (MAP3K12, Homo sapiens, UniProt Q12852)	cell-based kinome screen	human cells		baseline: untreated control	-0.318
Serine/threonine-protein kinase pim-1 (PIM1, Homo sapiens, UniProt P11309)	kinase-CDC37 interaction	human cells		baseline: vehicle	-0.14
NUAK family SNF1-like kinase 2 (NUAK2, Homo sapiens, UniProt Q9H093)	cell-based kinome screen	human cells		baseline: untreated control	-0.499
Serine/threonine-protein kinase 38 (STK38, Homo sapiens, UniProt Q15208)	kinase-CDC37 interaction	human cells		baseline: vehicle	-0.18
Epidermal growth factor receptor (EGFR, Homo sapiens, UniProt P00533, T790M)	kinase–CDC37 interaction		EGFR T790M oncogenic mutant	baseline: vehicle control	-0.335
Serine/threonine-protein kinase 32C (STK32C, Homo sapiens, UniProt Q86UX6)	kinase activity		cell-based kinome screen	baseline: vehicle	0.22
Testis-specific serine/threonine-protein kinase 2 (TSSK2, Homo sapiens, UniProt Q96PF2)	kinase activity		cell-based kinome screen	baseline: vehicle	-0.256
MAPK/MAK/MRK overlapping kinase (MOK, Homo sapiens, UniProt Q9UQ07)	kinase–CDC37 interaction		kinome plate 1@C06	baseline: vehicle	-0.126
Serine/threonine-protein kinase TAO3 (TAOK3, Homo sapiens, UniProt Q9H2K8)	kinase-CDC37 interaction	human cells		baseline: vehicle	-0.096

Repeated from above (sample 1):
target	read-out	technique	baseline	remaining activity [%]
cAMP-dependent protein kinase catalytic subunit alpha (PRKACA, Homo sapiens, UniProt P17612)	enzyme activity		untreated control	92.5
Dual specificity tyrosine-phosphorylation-regulated kinase 1B (DYRK1B, Homo sapiens, UniProt Q9Y463)	enzyme activity		untreated control	104
Calcium/calmodulin-dependent protein kinase type II subunit beta (CAMK2B, Homo sapiens, UniProt Q13554)	enzyme activity		untreated control	99.8
